Published values pooled from the literature.
Lines come from different studies, so protocols differ. ± gives the spread as reported.
ACE2: Angiotensin-converting enzyme 2 (ACE2, Homo sapiens, UniProt Q9BYF1)
Sequence of UniProt Q9BYF1 (whole entry, looked up): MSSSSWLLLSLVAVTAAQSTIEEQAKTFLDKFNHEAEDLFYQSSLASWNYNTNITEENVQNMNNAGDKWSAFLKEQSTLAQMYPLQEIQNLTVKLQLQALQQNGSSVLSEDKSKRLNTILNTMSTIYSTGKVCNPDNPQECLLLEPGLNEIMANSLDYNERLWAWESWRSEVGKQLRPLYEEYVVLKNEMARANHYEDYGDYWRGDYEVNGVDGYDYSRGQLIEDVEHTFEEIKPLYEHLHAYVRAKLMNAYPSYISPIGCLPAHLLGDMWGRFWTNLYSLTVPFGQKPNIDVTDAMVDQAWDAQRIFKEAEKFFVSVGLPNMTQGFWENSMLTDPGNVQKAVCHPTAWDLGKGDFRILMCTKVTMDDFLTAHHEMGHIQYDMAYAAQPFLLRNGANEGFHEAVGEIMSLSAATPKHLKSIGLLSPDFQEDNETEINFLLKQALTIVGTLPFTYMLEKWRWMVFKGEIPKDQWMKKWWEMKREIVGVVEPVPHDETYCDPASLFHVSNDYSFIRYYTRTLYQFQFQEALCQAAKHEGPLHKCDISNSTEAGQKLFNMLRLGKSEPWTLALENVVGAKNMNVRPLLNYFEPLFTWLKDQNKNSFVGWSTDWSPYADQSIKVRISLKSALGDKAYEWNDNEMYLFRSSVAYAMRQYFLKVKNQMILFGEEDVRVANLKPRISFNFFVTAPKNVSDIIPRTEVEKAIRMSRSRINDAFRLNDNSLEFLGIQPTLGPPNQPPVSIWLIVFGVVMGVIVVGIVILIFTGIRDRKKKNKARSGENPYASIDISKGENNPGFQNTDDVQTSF
Ferrichrome-binding lipoprotein FhuD: Ferrichrome-binding lipoprotein FhuD (Listeria monocytogenes, UniProt Q8Y5U6)
CYP2A6: Cytochrome P450 2A6 (CYP2A6, Homo sapiens, UniProt P11509)
Sequence of UniProt P11509 (whole entry, looked up): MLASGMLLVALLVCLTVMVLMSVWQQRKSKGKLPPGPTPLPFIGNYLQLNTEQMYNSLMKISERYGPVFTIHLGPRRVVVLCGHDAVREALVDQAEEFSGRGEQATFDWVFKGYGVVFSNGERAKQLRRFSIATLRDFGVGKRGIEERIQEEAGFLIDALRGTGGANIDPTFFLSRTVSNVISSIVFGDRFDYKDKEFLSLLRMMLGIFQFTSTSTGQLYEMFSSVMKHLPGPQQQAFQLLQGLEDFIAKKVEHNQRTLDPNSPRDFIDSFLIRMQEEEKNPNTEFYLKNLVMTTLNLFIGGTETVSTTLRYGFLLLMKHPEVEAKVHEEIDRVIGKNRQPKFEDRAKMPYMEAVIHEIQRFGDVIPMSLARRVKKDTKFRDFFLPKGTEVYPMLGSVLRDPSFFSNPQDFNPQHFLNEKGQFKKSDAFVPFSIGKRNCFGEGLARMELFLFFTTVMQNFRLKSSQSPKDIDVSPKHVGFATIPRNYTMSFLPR
Sequence of UniProt Q14145 (whole entry, looked up): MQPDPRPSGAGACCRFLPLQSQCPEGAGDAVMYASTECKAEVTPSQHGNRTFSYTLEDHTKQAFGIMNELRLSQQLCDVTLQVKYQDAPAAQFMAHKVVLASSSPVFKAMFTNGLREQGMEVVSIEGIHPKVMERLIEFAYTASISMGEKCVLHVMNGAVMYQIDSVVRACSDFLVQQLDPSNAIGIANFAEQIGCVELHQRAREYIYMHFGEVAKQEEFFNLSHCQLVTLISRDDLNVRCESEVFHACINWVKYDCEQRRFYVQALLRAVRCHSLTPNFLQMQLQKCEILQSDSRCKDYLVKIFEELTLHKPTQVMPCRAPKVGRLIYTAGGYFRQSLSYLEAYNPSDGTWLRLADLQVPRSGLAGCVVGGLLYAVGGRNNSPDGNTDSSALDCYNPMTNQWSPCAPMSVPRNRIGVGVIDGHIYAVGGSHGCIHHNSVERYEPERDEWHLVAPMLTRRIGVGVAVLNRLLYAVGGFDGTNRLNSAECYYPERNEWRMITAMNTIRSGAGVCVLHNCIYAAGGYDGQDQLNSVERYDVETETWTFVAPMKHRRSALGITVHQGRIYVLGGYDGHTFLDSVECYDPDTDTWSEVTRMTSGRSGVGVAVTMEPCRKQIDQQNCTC
Sequence of UniProt Q06520 (whole entry, looked up): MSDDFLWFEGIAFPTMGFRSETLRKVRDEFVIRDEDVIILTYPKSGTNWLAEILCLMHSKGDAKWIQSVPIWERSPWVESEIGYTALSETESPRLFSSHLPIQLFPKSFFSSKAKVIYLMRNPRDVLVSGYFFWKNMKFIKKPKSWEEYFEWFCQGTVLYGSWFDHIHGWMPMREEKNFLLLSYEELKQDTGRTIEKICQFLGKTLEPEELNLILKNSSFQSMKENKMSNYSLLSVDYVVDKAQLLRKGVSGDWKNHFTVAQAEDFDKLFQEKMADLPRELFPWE
Sequence of UniProt P62577 (whole entry, looked up): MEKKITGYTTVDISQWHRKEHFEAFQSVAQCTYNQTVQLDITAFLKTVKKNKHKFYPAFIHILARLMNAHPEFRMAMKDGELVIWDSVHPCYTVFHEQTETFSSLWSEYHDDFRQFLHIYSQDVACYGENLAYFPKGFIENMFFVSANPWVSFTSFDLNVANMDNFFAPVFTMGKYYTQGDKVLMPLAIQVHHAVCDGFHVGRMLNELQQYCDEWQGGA
Sequence of UniProt C7C422 (whole entry, looked up): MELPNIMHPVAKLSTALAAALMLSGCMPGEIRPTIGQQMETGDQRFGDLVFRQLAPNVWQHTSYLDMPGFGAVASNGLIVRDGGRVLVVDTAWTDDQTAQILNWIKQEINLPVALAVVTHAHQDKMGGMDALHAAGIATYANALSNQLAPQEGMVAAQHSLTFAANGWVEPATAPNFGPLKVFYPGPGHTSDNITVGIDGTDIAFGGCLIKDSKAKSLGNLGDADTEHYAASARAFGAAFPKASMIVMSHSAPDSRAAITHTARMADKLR
Sequence of UniProt P08191 (whole entry, looked up): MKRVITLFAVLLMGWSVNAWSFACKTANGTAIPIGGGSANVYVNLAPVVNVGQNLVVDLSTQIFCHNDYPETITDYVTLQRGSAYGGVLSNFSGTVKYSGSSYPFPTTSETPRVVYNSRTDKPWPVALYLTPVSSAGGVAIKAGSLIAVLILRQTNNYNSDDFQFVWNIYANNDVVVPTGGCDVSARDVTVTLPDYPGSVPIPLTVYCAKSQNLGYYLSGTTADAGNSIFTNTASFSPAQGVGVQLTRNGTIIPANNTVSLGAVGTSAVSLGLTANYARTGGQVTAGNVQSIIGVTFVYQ
Sequence of UniProt Q96C45 (whole entry, looked up): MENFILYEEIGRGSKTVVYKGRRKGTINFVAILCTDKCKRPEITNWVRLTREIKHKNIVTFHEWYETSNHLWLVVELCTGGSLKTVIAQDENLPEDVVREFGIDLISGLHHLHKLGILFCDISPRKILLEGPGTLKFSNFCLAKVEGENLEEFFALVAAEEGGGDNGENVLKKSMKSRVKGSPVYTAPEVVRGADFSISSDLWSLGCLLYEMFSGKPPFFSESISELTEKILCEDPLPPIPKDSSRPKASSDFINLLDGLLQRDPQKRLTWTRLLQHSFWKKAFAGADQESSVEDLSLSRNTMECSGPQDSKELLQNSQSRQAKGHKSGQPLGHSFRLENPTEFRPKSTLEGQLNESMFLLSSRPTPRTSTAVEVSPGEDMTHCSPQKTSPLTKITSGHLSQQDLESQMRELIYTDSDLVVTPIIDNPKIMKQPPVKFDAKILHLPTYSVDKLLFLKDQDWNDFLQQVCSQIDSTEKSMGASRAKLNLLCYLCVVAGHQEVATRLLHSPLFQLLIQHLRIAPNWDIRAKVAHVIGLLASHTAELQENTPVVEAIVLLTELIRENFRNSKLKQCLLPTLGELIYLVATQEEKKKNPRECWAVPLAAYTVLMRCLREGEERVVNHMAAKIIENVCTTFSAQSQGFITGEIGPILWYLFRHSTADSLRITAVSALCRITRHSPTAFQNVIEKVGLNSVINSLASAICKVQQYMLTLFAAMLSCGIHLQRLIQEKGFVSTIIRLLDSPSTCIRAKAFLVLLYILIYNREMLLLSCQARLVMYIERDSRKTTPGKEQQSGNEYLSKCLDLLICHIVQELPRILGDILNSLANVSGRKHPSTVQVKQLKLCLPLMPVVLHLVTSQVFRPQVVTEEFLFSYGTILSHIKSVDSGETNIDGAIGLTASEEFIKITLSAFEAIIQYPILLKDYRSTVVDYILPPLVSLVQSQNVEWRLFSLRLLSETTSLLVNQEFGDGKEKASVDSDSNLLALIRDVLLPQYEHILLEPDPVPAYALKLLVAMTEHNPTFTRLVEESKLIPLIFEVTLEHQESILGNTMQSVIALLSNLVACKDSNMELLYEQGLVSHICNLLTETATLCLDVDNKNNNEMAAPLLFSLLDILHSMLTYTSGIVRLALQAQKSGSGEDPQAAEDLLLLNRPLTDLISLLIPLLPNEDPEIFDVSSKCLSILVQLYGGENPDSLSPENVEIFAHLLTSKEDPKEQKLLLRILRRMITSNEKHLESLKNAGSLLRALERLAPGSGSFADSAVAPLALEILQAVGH
Sequence of UniProt Q06151 (whole entry, unmodified, looked up): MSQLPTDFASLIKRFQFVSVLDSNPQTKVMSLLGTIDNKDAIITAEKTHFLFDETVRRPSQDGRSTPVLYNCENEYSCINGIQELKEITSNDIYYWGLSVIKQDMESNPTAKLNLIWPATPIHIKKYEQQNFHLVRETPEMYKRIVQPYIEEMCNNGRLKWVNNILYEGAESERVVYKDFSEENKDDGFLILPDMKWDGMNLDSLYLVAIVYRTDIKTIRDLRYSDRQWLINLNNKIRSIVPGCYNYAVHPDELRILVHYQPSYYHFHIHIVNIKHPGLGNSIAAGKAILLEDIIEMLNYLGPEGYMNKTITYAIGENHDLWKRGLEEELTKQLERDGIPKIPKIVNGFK
Sequence of UniProt Q26239 (whole entry, unmodified, looked up): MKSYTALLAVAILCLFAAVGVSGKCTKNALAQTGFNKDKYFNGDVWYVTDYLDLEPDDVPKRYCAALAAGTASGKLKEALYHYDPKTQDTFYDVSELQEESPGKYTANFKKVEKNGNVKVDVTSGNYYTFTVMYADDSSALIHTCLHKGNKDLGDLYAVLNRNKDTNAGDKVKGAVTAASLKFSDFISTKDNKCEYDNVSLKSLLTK

Substance | target | assay | test system | conditions | Kd
CSCC[C@H](NC(=O)[C@H](CO)NC(=O)[C@@H](NC(=O)[C@H](CCC(N)=O)NC(=O)[C@H](CCCCN)NC(=O)[C@H](CCCCN)NC(=O)[C@H](CCCNC(=N)N)NC(=O)[C@H](CCCCN)NC(C)=O)[C@@H](C)O)C(=O)N[C@H](C(=O)N[C@@H](CC(=O)O)C(=O)N[C@@H](Cc1ccccc1)C(=O)N[C@@H](Cc1ccc(O)cc1)C(=O)N[C@@H](Cc1c[nH]cn1)C(=O)N[C@@H](CO)C(=O)N[C@@H](CCCNC(=N)N)C(=O)N[C@@H](CCCCN)C(=O)N[C@@H](CCCCN)C(N)=O)[C@@H](C)O | PCNA (Homo sapiens, UniProt P12004) | binding, ITC | – | pH 7.4 | 0.087 µM
C[n+]1cn([C@@H]2O[C@H](COP(=O)(O)OP(=O)([O-])OP(=O)(O)OC[C@H]3O[C@@H](n4cnc5c(=O)[nH]c(N)nc54)[C@H](O)[C@@H]3O)[C@@H](O)[C@H]2O)c2nc(N)[nH]c(=O)c21 | m7GpppX diphosphatase (DCS1, Saccharomyces cerevisiae, UniProt Q06151, H268N/K126A) | NMR titration | – | closed site, K126A H268N | 0.112 µM
CC1=C(/C=C/C(C)=C/C=C/C(C)=C/C=C/C=C(C)/C=C/C=C(C)/C=C/C2=C(C)C[C@@H](O)CC2(C)C)C(C)(C)C[C@H](O)C1 | Albumin (ALB, Homo sapiens, UniProt P02768) | binding, SPR | – | – | 1.71 µM
CC[N+](CC)(CC)CC(=O)Nc1c(C)cccc1C | sodium channel (rat brain), batrachotoxin-modified | open channel block, blocker, planar lipid bilayer, single channel | – | low-Kd period, +60 mV | 660 µM
cGMP | Potassium/sodium hyperpolarization-activated cyclic nucleotide-gated channel 2, C-terminal region (Hcn2, Mus musculus, UniProt O88703) | binding | – | – | 0.36 µM
N#C[C@H](O[C@@H]1O[C@H](CO)[C@@H](O)[C@H](O)[C@H]1O)c1ccccc1 | ACE2 | binding, SPR | – | – | 0.268 µM
CC(=O)N[C@@H](CO)C(=O)N[C@@H](CC(C)C)C(=O)N[C@@H](CCC(=O)O)C(=O)N[C@@H](CCC(=O)O)C(=O)N1CCC[C@H]1C(=O)N[C@@H](Cc1c[nH]cn1)C(=O)N[C@@H](CO)C(=O)N1CCC[C@H]1C(=O)N[C@@H](CCC(=O)O)C(=O)N[C@H](C(=O)NCC(=O)N[C@@H](CCC(=O)O)C(=O)N[C@@H](CCCCN)C(=O)N[C@H](C(=O)N[C@H](C(=O)N[C@@H](C)C(=O)NCC(=O)N[C@@H](CCC(=O)O)C(=O)N[C@H](C(=O)N[C@@H](CC(N)=O)C(N)=O)C(C)C)C(C)C)C(C)C)[C@@H](C)O | Kelch-like ECH-associated protein 1, Kelch domain (KEAP1, Homo sapiens, UniProt Q14145) | isothermal titration calorimetry | Kelch domain | pH 7, 25 °C | 0.25 ± 0.02 µM
CCCCCCCO[C@@H]1C[C@@H](O)[C@@H](O)[C@H](O)[C@@H](CO)O1 | fimH (Escherichia coli K-12, UniProt P08191) | binding, competitive fluorescence polarization | – | full-length FimH | > 500 µM
CC(=O)N(O)CCCCCNC(=O)CCC(=O)N(O)CCCCCNC(=O)CCC(=O)N(O)CCCCCN.[Fe+3] | Ferrichrome-binding lipoprotein FhuD | binding, tryptophan fluorescence quenching | – | His tag removed | 0.044 ± 0.003 µM
C#CC[C@H](NC(=O)CNC(=O)[C@H](CO)NC(=O)[C@H](C)NC(=O)[C@H](Cc1ccc(O)cc1)NC(=O)[C@H](Cc1c[nH]cn1)NC(=O)[C@H](CC(C)C)NC(=O)[C@@H](NC(=O)[C@H](Cc1c[nH]c2ccccc12)NC(=O)[C@H](Cc1ccccc1)NC(=O)[C@H](CCCCN)NC(=O)[C@H](CC(N)=O)NC(=O)[C@H](CC(C)C)NC(=O)[C@@H](NC(=O)[C@H](Cc1c[nH]cn1)NC(=O)[C@H](CC(=O)O)NC(=O)[C@H](CC(C)C)NC(=O)[C@H](Cc1ccccc1)NC(=O)[C@@H](NC(=O)[C@@H]1CCCN1C(=O)[C@@H](N)CCSC)[C@@H](C)CC)[C@@H](C)CC)[C@@H](C)CC)C(N)=O (stereo in doubt) | Programmed cell death 1 ligand 1, extracellular domain, unglycosylated (CD274, Homo sapiens, UniProt Q9NZQ7) | binding | – | – | 0.06 to 0.12 µM
Nc1nc2c(ncn2C2OC3COP(=O)(O)OC4C(COP(=O)(O)OC3C2O)OC(n2cnc3c(=O)[nH]c(N)nc32)C4OC(=O)NCCCCCCNC(=O)c2ccc(-c3c4ccc(=O)cc-4oc4cc(O)ccc34)c(C(=O)O)c2)c(=O)[nH]1 (stereo not shown) | Transcriptional regulator BldD, C-terminal domain (Streptomyces venezuelae, UniProt F2RCL8, D116A) | fluorescence polarization | – | pH 7.5, 25 °C, motif 2 only | 1.6 ± 0.5 µM
CCCCCC1=C/C(=C/c2[nH]c(-c3ccc[nH]3)cc2OC)N=C1C | pre-miR-21 RNA | binding, intrinsic fluorescence | – | together with: 1.0 µM pre-miR-21 | 0.16 ± 0.06 µM
CCCCCCCCCC[N+](CCC)(CCC)CCC | potassium channel | steady-state block | Doryteuthis pealeii | internal application, together with: membrane potential +100 mV | 92 µM
Nc1ncnc2c1ncn2[C@@H]1O[C@H](COP(=O)(O)O)[C@@H](OP(=O)(O)O)[C@H]1O | Sult1a1 (Rattus norvegicus, UniProt P17988) | binding, TNP-AMP displacement | – | enzyme pretreated with GSH | 4.01 ± 0.06 µM
CCCCCCCC[N+](CC)(CC)CCCO | potassium channel | steady-state block | Doryteuthis pealeii | internal application, together with: membrane potential +100 mV | 7 µM
CC(=O)N(O)CCC[C@@H]1NC(=O)CNC(=O)CNC(=O)CNC(=O)[C@H](CCCN(O)C(C)=O)NC(=O)[C@H](CCCN(O)C(C)=O)NC1=O.[Fe+3] | Ferrichrome-binding lipoprotein FhuD | binding, tryptophan fluorescence quenching | – | His tag removed | 0.243 ± 0.013 µM

Substance | target | assay | test system | conditions | Kd
CC[N+](CC)(CC)CC(=O)Nc1c(C)cccc1C | potassium channel | steady-state block | Doryteuthis pealeii | internal application, together with: membrane potential +100 mV | 961 µM
O=C(O)CNC(=O)C(CS)Cc1ccccc1 (stereo not shown) | Metallo-beta-lactamase type 2, di-zinc (blaNDM-1, Klebsiella pneumoniae, UniProt C7C422) | binding | – | – | 1900 to 4500 µM
Nc1ncnc2c1ncn2[C@@H]1O[C@H](COP(=O)(O)OP(=O)(O)O)[C@@H](O)[C@H]1O | matB (Rhodopseudomonas palustris, UniProt Q6ND88, C106A/K488A/Q457C/R286C) | binding, fluorescence titration | – | pH 7.0, 20 °C | 428 ± 50 µM
CC(=O)N[C@@H](C)C(=O)N[C@@H](CC(N)=O)C(=O)NCC(=O)N[C@@H](CC(N)=O)C(=O)N[C@@H](C)C(=O)N[C@@H](CCC(=O)O)C(=O)N[C@@H](CC(N)=O)C(=O)N[C@@H](CCC(=O)O)C(=O)N[C@@H](CCC(=O)O)C(=O)N[C@@H](CC(N)=O)C(=O)NCC(=O)N[C@@H](CCC(=O)O)C(=O)N[C@@H](CCC(N)=O)C(=O)N[C@@H](CCC(=O)O)C(=O)N[C@@H](C)C(=O)N[C@@H](CC(=O)O)C(=O)N[C@@H](CC(N)=O)C(=O)N[C@@H](CCC(=O)O)C(=O)N[C@H](C(=O)N[C@@H](CC(=O)O)C(N)=O)C(C)C | KEAP1 (Homo sapiens, UniProt Q14145) | binding, ITC | – | pH 7 | 11.6 µM
CCCCCCCCCCCCCCCC(=O)N[C@@H](CCC(=O)O)C(=O)O | Bifunctional cytochrome P450/NADPH--P450 reductase, heme domain (cyp102A1, Bacillus megaterium, UniProt P14779) | substrate binding, substrate, UV-vis spectral titration | – | pH 7.4, room temperature, wild-type heme domain | 3.7 ± 0.13 µM
RFDSDAENPRYEPQAPWMEQE | murine mAb 64-3-7 Fab | binding, SPR | peptide | – | 0.127 ± 0.0014 µM
CC#Cc1cc2ccccc2c2ccccc12 | CYP2A6 | binding, absorbance | – | pH 7.4 | 13 µM
CCSCCNC(=O)CCNC(=O)[C@H](O)C(C)(C)COP(=O)(O)OP(=O)(O)OC[C@H]1O[C@@H](n2cnc3c(N)ncnc32)[C@H](O)[C@@H]1OP(=O)(O)O | Chloramphenicol acetyltransferase (cat, Escherichia coli, UniProt P62577) | ligand, native ESI-MS | – | second ligand binding, gas phase, together with: 200 mM ammonium acetate | 10 ± 5 µM
CC(=O)N[C@@H](C)C(=O)N[C@@H](Cc1ccccc1)C(=O)N[C@@H](CCCNC(=N)N)C(=O)N[C@@H](C)C(=O)N[C@@H](CC(=O)O)C(=O)N[C@H](C(=O)N[C@@H](CCCNC(=N)N)C(=O)N[C@@H](C)C(=O)N[C@@H](CCC(=O)O)C(=O)N[C@@H](CCCNC(=N)N)C(=O)N[C@@H](C)C(=O)N[C@@H](CCC(=O)O)C(N)=O)C(C)C | Amyloid-beta precursor protein, Aβ40 fibrils (APP, Homo sapiens, UniProt P05067) | isothermal titration calorimetry | sodium phosphate buffer | pH 8, 25 °C, peptide titrated into protein | 20.4 µM
C#Cc1ccc2ccc3ccccc3c2c1 | CYP2A6 | binding, absorbance | – | pH 7.4 | 3.3 µM
Nc1ncnc2c1ncn2[C@@H]1O[C@H](COP(=O)(O)OS(=O)(=O)O)[C@@H](OP(=O)(O)O)[C@H]1O | SULT2A1 (Homo sapiens, UniProt Q06520) | binding, tryptophan fluorescence | – | pH 7.0, 37 °C, ligand-free enzyme | 518 ± 91 µM
COC(=O)[C@H]1C(c2ccc(I)cc2)C[C@@H]2CC[C@H]1N2C (stereo partly shown) | SLC6A3 (Homo sapiens, UniProt Q01959) | binding, radioligand saturation binding | HEK293 hDAT membranes | 90 min, pH 7.4, room temperature | 0.00171 ± 0.00023 µM
CNc1ccccc1C(=O)O[C@H]1[C@@H](O)[C@H](n2cnc3c(N)ncnc32)O[C@@H]1COP(=O)(O)OP(=O)(O)O | Serine/threonine-protein kinase ULK4 (ULK4, Homo sapiens, UniProt Q96C45) | nucleotide binding, FRET | – | with Mg2+ | 28.6 µM
COc1cc(O)c2c(c1)C(=O)c1cc(C)cc(O)c1C2=O | ACE2 | binding, SPR | – | – | 0.379 µM
c1c[nH]cn1 | Nitrophorin-1 (Rhodnius prolixus, UniProt Q26239, H82C) | binding, UV/Vis titration | – | pH 7.4, 25 °C, H60C mutant complex | 120 ± 1e-05 µM

A few entries again:
Substance | target | assay | test system | conditions | Kd
CC[N+](CC)(CC)CC(=O)Nc1c(C)cccc1C | potassium channel | steady-state block | Doryteuthis pealeii | internal application, together with: membrane potential +100 mV | 961 µM
RFDSDAENPRYEPQAPWMEQE | murine mAb 64-3-7 Fab | binding, SPR | peptide | – | 0.127 ± 0.0014 µM
CCCCCC1=C/C(=C/c2[nH]c(-c3ccc[nH]3)cc2OC)N=C1C | pre-miR-21 RNA | binding, intrinsic fluorescence | – | together with: 1.0 µM pre-miR-21 | 0.16 ± 0.06 µM
